Assay results gathered from unrelated publications.
Every numbered part comes from another study and shows a few of its results, in no order.

Block 1
Target: 5-hydroxytryptamine receptor 6 (HTR6, Homo sapiens, UniProt P50406)
UniProt P50406, sequence (whole entry, looked up): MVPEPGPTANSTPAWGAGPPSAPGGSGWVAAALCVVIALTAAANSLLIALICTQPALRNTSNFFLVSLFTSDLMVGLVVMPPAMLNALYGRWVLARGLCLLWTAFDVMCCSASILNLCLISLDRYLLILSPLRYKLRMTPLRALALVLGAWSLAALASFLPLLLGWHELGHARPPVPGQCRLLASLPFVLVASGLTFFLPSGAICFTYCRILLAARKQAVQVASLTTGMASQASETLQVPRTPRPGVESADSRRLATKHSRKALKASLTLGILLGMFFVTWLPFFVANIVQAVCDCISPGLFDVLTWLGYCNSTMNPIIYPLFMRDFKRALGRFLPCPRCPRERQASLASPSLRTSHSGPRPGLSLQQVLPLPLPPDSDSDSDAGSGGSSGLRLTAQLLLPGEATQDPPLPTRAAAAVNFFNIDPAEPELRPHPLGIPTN
Observed: ligand displacement
Concentration: 10 µM
With Cc1noc([C@H]2C[C@@H](c3ccc(C(F)(F)F)cc3)CN(C(=O)N3CCS(=O)(=O)C3)C2)n1 the inhibition was 27.7%.
With Cc1ncc(-c2cc(Cl)ccc2F)cc1-n1c(=O)n(CC(N)=O)c2ccccc21 the inhibition was 14.1%.
COc1cc(N[C@@H]2CCCC[C@]2(O)C(F)(F)F)ccc1F gave an inhibition of -4.02%.
COCCOc1nc(-c2ccc(Cl)nc2)nc2c1CN(C(=O)c1ncn3ccccc13)CC2 gave an inhibition of -4.55%.
The inhibition of COc1ccc2cc(OCC3(C(=O)O)CN(C(=O)c4ccc(F)cc4)C3)ccc2c1 is reported as -6.47%.
The inhibition of CN(C)CC#Cc1ccc(OCCCc2sc(N3CCc4cccc(C(=O)Nc5nc6ccccc6s5)c4C3)nc2C(=O)O)c(F)c1 is reported as -1.75%.
With c1ccc(N2CCN(Cc3nc4ccccc4[nH]3)CC2)nc1 the inhibition was 2.35%.
The inhibition of O=S(=O)(NC1CCC(c2cc(F)ccc2F)(S(=O)(=O)c2ccc(Cl)cc2)CC1)C(F)(F)F (centres unmarked) is reported as 12.4%.
The inhibition of Cc1c(NC(=O)c2cc(C(N)=O)nc3cc(F)ccc23)c(C(F)(F)F)nn1Cc1ccc(C#N)cc1 is reported as -0.383%.
The inhibition of NS(=O)(=O)c1cc(NC(=O)Cc2ccccc2)ccc1Oc1cccc(Cl)c1 is reported as 17.2%.
The inhibition of Cn1cc(Cl)c2c(Oc3c(F)cc(Nc4cc(Cl)nc(N)n4)cc3F)ccnc21 is reported as -1.64%.
For CNC(=N)NCCC[C@H](NC(=O)[C@H](CC(C)C)NC(=O)NNC(=O)[C@H](Cc1ccccc1)NC(=O)[C@H](CO)NC(=O)[C@H](CC(N)=O)NC(=O)[C@@H](Cc1ccncc1)NC(=O)[C@H](N)Cc1ccc(O)cc1)C(=O)N[C@@H](Cc1ccccc1)C(N)=O, the inhibition was 4.93%.
The inhibition of CN(C)C(=O)c1sc2nc(N3CCC(S(C)(=O)=O)CC3)cc(C(F)(F)F)c2c1N is reported as 24.2%.
For Nc1nc(NCc2ccccc2)nc(-c2ccccc2CO)n1, the inhibition was 19.4%.
With CO[C@H]1CC[C@H](CNc2ccc(S(=O)(=O)NC(=O)c3ccc(N4CCN(CC5=C(c6ccc(Cl)cc6)CC(C)(C)CC5)CC4)cc3Oc3cnc4[nH]ccc4c3)cc2[N+](=O)[O-])CC1 the inhibition was -8.56%.
The inhibition of CCc1ccccc1C(=O)Nc1n[nH]c2c(C)c(F)c(C3C(C#N)=C(C)N(C)C(C)=C3C#N)cc12 is reported as 9.23%.
With CC1CCN(c2ccnc(NCc3cn(C)cn3)n2)CC1 the inhibition was 32.1%.
With O=c1nc(-c2ccccn2)sc2ccccc12 the inhibition was -1.33%.
For O=C(NCCCC1CCCCC1)c1ccc(CNC(=O)c2cnn(-c3ccccc3)c2C(F)(F)F)cc1, the inhibition was -0.05%.
With COc1cc(-c2cn(C3CCc4c(F)cccc4N(CC(F)(F)F)C3=O)nn2)ccc1-n1cnc(C)c1 (centres unmarked) the inhibition was -4.64%.
With CCC(=NO)C(C)=Cc1ccc(F)c(C)c1 the inhibition was -3.93%.
N#CC1(c2ccccn2)CCN(Cc2cc(C(=O)N3CCCC3)c(=O)n3ccccc23)CC1 has an inhibition of 2.79%.

Block 2
Target: Calcium/calmodulin-dependent protein kinase type II subunit alpha (CAMK2A, Homo sapiens, UniProt Q9UQM7)
UniProt Q9UQM7, sequence (whole entry, looked up): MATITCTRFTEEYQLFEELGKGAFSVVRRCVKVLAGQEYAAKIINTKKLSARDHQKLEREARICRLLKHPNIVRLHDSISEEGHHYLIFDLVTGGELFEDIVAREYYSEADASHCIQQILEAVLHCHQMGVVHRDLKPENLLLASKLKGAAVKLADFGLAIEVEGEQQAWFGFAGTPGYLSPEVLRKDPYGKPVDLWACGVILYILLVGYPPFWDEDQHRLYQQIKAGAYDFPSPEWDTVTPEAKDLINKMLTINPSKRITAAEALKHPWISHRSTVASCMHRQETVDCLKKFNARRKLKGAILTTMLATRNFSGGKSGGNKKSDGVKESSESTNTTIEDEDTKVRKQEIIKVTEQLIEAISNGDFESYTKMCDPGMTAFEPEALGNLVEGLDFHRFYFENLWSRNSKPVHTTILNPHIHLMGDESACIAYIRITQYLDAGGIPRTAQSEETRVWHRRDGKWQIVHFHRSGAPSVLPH
Observed: enzyme activity
Mode: inhibitor
Concentration: 10 µM
With OCc1ccoc1 the inhibition was -3%.
For Cc1ccc(N(CC2=NCCN2)c2cccc(O)c2)cc1, the inhibition was 0%.
For NC(=O)C[C@H](N)C(=O)O, the inhibition was -13%.
The inhibition of CC(C)CCC[C@](C)(O)[C@H]1CC[C@H]2[C@@H]3CC=C4C[C@@H](O)CC[C@]4(C)[C@H]3CC[C@@]21C is reported as 59%.
O=c1cc(-c2ccc(O)c(O)c2)oc2cc(O)c([C@@H]3O[C@H](CO)[C@@H](O)[C@H](O)[C@H]3O)c(O)c12 has an inhibition of -33%.
COc1ccc(-c2cc(=O)c3c(O)c(OC)c(OC)c(OC)c3o2)cc1 has an inhibition of -5%.
For CCOC(=O)[C@H](CCc1ccccc1)N[C@@H](C)C(=O)N1CCC[C@H]1C(=O)O, the inhibition was 7%.
CSc1ccc(C(=O)c2[nH]c(=O)[nH]c2C)cc1 gave an inhibition of 1%.
For O=c1ccc2ccc(O)c(O)c2o1, the inhibition was -4%.
C[C@@H](OC[C@@]1(c2ccccc2)CC[C@]2(CCC(=O)N2)CN1)c1cc(C(F)(F)F)cc(C(F)(F)F)c1 has an inhibition of 0%.

Block 3
Target: High affinity nerve growth factor receptor (NTRK1, Homo sapiens, UniProt P04629)
UniProt P04629, sequence (whole entry, looked up): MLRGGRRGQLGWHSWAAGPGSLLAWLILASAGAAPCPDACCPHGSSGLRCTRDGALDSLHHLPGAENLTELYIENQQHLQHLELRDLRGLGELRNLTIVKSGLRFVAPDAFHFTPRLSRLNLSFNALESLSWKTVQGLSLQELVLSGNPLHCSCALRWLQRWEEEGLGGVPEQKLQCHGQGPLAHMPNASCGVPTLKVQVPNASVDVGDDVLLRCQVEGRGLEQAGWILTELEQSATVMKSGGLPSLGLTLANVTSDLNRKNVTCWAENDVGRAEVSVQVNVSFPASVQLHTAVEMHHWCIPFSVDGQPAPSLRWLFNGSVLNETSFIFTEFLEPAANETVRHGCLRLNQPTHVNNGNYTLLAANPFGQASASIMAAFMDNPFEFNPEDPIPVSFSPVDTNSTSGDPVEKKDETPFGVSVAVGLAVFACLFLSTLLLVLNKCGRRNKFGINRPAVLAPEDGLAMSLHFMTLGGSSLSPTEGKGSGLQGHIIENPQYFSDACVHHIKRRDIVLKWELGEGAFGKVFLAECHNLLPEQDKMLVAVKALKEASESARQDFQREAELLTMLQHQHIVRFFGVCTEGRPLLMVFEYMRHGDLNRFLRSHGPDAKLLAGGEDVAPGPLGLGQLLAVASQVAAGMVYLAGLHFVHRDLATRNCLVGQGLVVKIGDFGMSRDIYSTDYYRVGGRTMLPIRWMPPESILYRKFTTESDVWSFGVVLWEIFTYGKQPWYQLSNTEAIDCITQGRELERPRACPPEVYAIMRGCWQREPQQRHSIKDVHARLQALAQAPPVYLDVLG
Observed: enzyme activity
Mode: inhibitor
Concentration: 0.5 µM
Relative to: control
For CN(C)S(=O)(=O)c1ccc2c(c1)/C(=C/c1cc3c([nH]1)CCCC3)C(=O)N2, the remaining activity was 24.7%.
With O=C(c1cc2cc(O)ccc2[nH]1)c1cc2cc(O)ccc2[nH]1 the remaining activity was 57.2%.
N#Cc1cnc2cnc(NCc3cccnc3)cc2c1Nc1ccc(F)c(Cl)c1 has a remaining activity of 96.2%.
With Cc1ccc(S(=O)(=O)/C=C/C#N)cc1 the remaining activity was 90.1%.
c1ccc2c(-c3ccncc3)c[nH]c2c1 gave a remaining activity of 97%.
CCCNC(=O)Nc1ccc(Oc2ncnc3cc(OC)c(OC)cc23)cc1Cl gave a remaining activity of 93.2%.
With O=c1cc(N2CCOCC2)oc2c(-c3ccccc3)cccc12 the remaining activity was 95%.
The remaining activity of COc1ccc2c(c1)c(C1=C(c3c[nH]c4ccccc34)C(=O)NC1=O)cn2CCCN(C)C is reported as 83.1%.
COc1ccc(COc2ccc(Cc3cnc(N)nc3N)cc2OC)cc1 has a remaining activity of 51.3%.
The remaining activity of O=C1NC(=O)c2c1c1c3ccccc3[nH]c1c1[nH]c3cc(Br)ccc3c21 is reported as 82.2%.
Oc1cccc(-c2nc(N3CCOCC3)c3oc4ncccc4c3n2)c1 gave a remaining activity of 94.9%.
The remaining activity of CN1CCN(c2ccc3nc(-c4c(N)c5c(F)cccc5[nH]c4=O)[nH]c3c2)CC1 is reported as 4.57%.
COc1cccc(-c2cc(=O)c3ccccc3o2)c1N gave a remaining activity of 99.9%.
With O=Nc1c(-c2c(O)[nH]c3cc(Br)ccc23)[nH]c2ccccc12 the remaining activity was 34.5%.
The remaining activity of c1ccc(-c2n[nH]c3c2oc2ccccc23)cc1 is reported as 85.6%.
For O=C1Nc2ccc(Br)cc2/C1=C/c1cc2c([nH]1)CCCC2, the remaining activity was 51.8%.
O=C1Nc2ccccc2/C1=C\c1c(Cl)[nH]c2ccccc12 has a remaining activity of 90.7%.
With O=C1NC(=O)c2c1c1c3ccccc3[nH]c1n1cncc21 the remaining activity was 89.8%.
CCCCc1c(-c2ccc(OC)cc2)[nH]c2nccnc12 has a remaining activity of 109%.
Cc1cc(Nc2cc(N3CCN(C)CC3)nc(Sc3ccc(NC(=O)C4CC4)cc3)n2)[nH]n1 gave a remaining activity of 6.52%.

Block 4
Target: Beta-1 adrenergic receptor (ADRB1, Homo sapiens, UniProt P08588)
UniProt P08588, sequence (whole entry, looked up): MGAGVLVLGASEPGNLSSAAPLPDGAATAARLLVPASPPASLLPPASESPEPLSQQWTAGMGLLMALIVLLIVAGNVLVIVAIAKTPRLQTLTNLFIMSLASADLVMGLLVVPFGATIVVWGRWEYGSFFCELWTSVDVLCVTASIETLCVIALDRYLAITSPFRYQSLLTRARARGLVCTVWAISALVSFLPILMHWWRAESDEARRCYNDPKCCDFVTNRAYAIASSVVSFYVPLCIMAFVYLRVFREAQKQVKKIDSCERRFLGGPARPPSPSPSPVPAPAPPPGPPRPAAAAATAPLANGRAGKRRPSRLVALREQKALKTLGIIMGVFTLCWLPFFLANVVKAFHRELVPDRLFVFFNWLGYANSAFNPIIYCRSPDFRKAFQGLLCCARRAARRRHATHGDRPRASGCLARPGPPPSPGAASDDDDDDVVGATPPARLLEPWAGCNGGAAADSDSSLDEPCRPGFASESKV
Mode: agonist
With COc1ccccc1N1CCN(CCCCNC(=O)c2ccc(-c3cscn3)cc2)CC1 the Emax was 75.6%.
With CC#CCn1cc2c3c(cccc31)[C@H](CC(C)C)N[C@H](C(=O)NCCC)C2 the Emax was 102%.
With COc1ccc2[nH]cc(C3CCN(CC(O)COc4ccccc4)CC3)c2c1 (centres unmarked) the Emax was 85.3%.
Cc1cccc(CNCc2ccccc2OCC(O)CN2CCSCC2)c1 (centres unmarked) gave an Emax of 38%.
COc1ccccc1N1CCN(CC[C@@H]2CC[C@H](O)[C@@H](C(=O)NC(C)C)O2)CC1 gave an Emax of 97.7%.
Cn1c(=O)c2c(ncn2CCCNCC(O)c2cc(O)cc(O)c2)n(C)c1=O (centres unmarked) gave an Emax of 65.5%.
With CC[C@H](NC(C)C)[C@H](O)c1ccc(O)c2[nH]c(=O)ccc12 (racemic) the Emax was 98.2%.

For quick reference, copied from above (block 1):
The inhibition of CCc1ccccc1C(=O)Nc1n[nH]c2c(C)c(F)c(C3C(C#N)=C(C)N(C)C(C)=C3C#N)cc12 is reported as 9.23%.
With CCC(=NO)C(C)=Cc1ccc(F)c(C)c1 the inhibition was -3.93%.
For CNC(=N)NCCC[C@H](NC(=O)[C@H](CC(C)C)NC(=O)NNC(=O)[C@H](Cc1ccccc1)NC(=O)[C@H](CO)NC(=O)[C@H](CC(N)=O)NC(=O)[C@@H](Cc1ccncc1)NC(=O)[C@H](N)Cc1ccc(O)cc1)C(=O)N[C@@H](Cc1ccccc1)C(N)=O, the inhibition was 4.93%.
With CC1CCN(c2ccnc(NCc3cn(C)cn3)n2)CC1 the inhibition was 32.1%.
The inhibition of NS(=O)(=O)c1cc(NC(=O)Cc2ccccc2)ccc1Oc1cccc(Cl)c1 is reported as 17.2%.
